Assay results collected from several papers.
Parts stem from different laboratories: compare values within a part only. Changes are numbered by the printed parent chain.

Study 1 — method: aptamer microarray, sandwich; molecule type: DNA with 2'F-ANA; sample: in vitro; concentration: 200 nM; together with: Cy3 exosite-II aptamer, 400 nM; direction: higher = stronger binding; quantity: mean fluorescence intensity; oligonucleotide: GGTTGGTGTGGTTGG
Target: Prothrombin, mature alpha-thrombin (F2, Homo sapiens, UniProt P00734)
Notes: whole 15-mer aptamer, many near background
Modification = 2'F-ANA at 1 4 5 7 11 13 14 15; value = 43.6 a.u.
Modification = 2'F-ANA at 3 4 8 12 15; value = 1200 a.u.
Modification = 2'F-ANA at 2 3 4 7 8 9 13 15; value = 453 a.u.
Modification = 2'F-ANA at 1 3 4 6 8 9 11 14 15; value = 63.2 a.u.
Modification = 2'F-ANA at 1 2 5 6 8 11 13; value = 193 a.u.
Modification = 2'F-ANA at 1 4 5 6 7 10 11 12 13 14; value = 45.3 a.u.
Modification = 2'F-ANA at 1 2 3 4 9 15; value = 177 a.u.
Modification = 2'F-ANA at 1 7 9 10 12 14; value = 45.6 a.u.
Modification = 2'F-ANA at 1 2 3 4 8 11 13 15; value = 138 a.u.
Modification = 2'F-ANA at 2 3 4 8 9 10 11 12 13 15; value = 238 a.u.
Modification = 2'F-ANA at 1 4 6 8 9 10 11 12 13; value = 56.8 a.u.
Modification = 2'F-ANA at 5 7 9 12 13 14 15; value = 60 a.u.
Modification = 2'F-ANA at 1 2 3 6 9 10 12 13 15; value = 81.1 a.u.
Modification = 2'F-ANA at 2 5 6 7 12; value = 155 a.u.
Modification = 2'F-ANA at 7 10 11 13 14 15; value = 119 a.u.
Modification = 2'F-ANA at 1 11 12 15; value = 341 a.u.
Modification = 2'F-ANA at 2 3 4 10 14; value = 205 a.u.

Study 2 — method: competition protein-binding microarray; molecule type: double-stranded DNA, one strand shown; sample: in vitro; concentration: 2 µM; together with: Pho4 competitor, 0.05 µM; direction: higher = stronger binding; quantity: fluorescence intensity; constant ends, left off below: … GTCTTGATTCGCTTGACGCTGCTG
Target: Centromere-binding protein 1, full length, His-tagged (CBF1, Saccharomyces cerevisiae, UniProt P17106, residues 1-351)
UniProt P17106, sequence (whole entry, looked up): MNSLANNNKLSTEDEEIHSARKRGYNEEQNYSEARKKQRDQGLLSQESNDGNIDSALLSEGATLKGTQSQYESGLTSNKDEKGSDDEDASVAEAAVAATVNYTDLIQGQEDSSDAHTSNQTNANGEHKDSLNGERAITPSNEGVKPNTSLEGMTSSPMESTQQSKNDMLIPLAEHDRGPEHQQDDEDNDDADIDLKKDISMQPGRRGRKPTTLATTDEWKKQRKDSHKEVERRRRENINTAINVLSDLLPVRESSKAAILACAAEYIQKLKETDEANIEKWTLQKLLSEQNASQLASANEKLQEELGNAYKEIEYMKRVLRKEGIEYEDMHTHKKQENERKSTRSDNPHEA
Notes: whole 60-bp probe, lowest competitor level
Oligonucleotide = CATACCCAACCTTGTACAGTGGGTGAAGATATTTGT; value = 64.9 a.u.
Oligonucleotide = TTCCCATTGACGTACAAGGTGATGCTGATCGTTCGG; value = 67.9 a.u.
Oligonucleotide = GTCTTGTCTCATTGTCACAAGACTTTCCCCACTTCA; value = 170 a.u.
Oligonucleotide = AAATTACTAAGTTTTCACGTGCGTTACCCCGTATGA; value = 980 a.u.
Oligonucleotide = AAAGCGGTAATTTGAACAGTGGGTGCAGATATCTAT; value = 80.9 a.u.
Oligonucleotide = AGCGGGGTAACCCATCACGTGGGTAGCCATTTTTCC; value = 3700 a.u.
Oligonucleotide = TGCGCAACAACTTGTGTAGTGGGTGTATGTCTAGAA; value = 65.3 a.u.
Oligonucleotide = TTGCTTTATCGAAAATCCGTGATGGCGGTCCTTCAG; value = 72.3 a.u.
Oligonucleotide = TTCAACGCTTTGAAACACGTGACGAAGATGCGGGTC; value = 6590 a.u.
Oligonucleotide = TGGCGCTTGACTCCACTCGTGAGTCTTGTTTGGACT; value = 72.5 a.u.
Oligonucleotide = GTCTTGTCTCATTGTCACACAACTTTCCCCACTTCA; value = 84.8 a.u.
Oligonucleotide = TTATCGTTGTGTAACCACGTAGAGAATCCCTTATAA; value = 69.9 a.u.
Oligonucleotide = GCTGAGTACTTTGGGGTCGTGATGGAGCTGTGCTAC; value = 97.8 a.u.
Oligonucleotide = AAATTACTAAGTTGATTCGTGGGTGACGCCGTATGA; value = 84.4 a.u.
Oligonucleotide = CCCCGAAATTGAGTGCACATGCTCGCAAGATAATAT; value = 302 a.u.
Oligonucleotide = CTTTCCCGATCTTTTCACGTGATATTAGCACATTTG; value = 3430 a.u.
Oligonucleotide = TGCGCAACAACTTGAGGAGTGGGTGTATGTCTAGAA; value = 57 a.u.

Study 3 — method: RNA Bind-n-Seq; molecule type: RNA; sample: in vitro; concentration: 365 nM; relative to: no-protein control; direction: higher = stronger binding; quantity: RBNS enrichment (R)
Target: RNA binding protein fox-1 homolog 2, RRM domain, GST-SBP tag (RBFOX2, Homo sapiens, UniProt O43251-10, residues 100-194)
Notes: natural RNA segment, single round, ends assumed
Constant ends, left off below: GGGAGUUCUACAGUCCGACGAUC … UGGAAUUCUCGGGUGCCAA
Residues (chain): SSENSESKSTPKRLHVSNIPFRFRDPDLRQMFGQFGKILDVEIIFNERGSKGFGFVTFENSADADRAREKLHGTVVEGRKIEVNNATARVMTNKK
Oligonucleotide = UAUGUCUGAAGGUUUUAAAUAGUGGUUGACCCAACACCUUGGACUGAAAUUUUGAAAAGUUUUGAAAAAAGACUGCUAGACUUAGAGAGAGAAGCCAGAACAAAUUCCGC; value = 0.676
Oligonucleotide = UCUGGAAGAACAGCCAGCUUGGAAGUUUUACAGCAAUAAUGUUGCAGUGGAAUAUUAUUUGUAGUUAAGGUCAUCCUCCUCCCCUUUCUGUUUUUUUAAAUCAAGAACUA; value = 0.345
Oligonucleotide = AACACACAUAUAUAUAGUGAUUUCUAAAGAUUUGUUUACUUUUGUGUUUUGUUUUACUGUACUAAGAACUUGUCCUUUCUCCUUGAAUCAAAGUAGGACAUGCAUCAUCC; value = 0.608
Oligonucleotide = CAGAAGACUACAGGCUGGUGUCCCUAGAGGGCCCAAUACAGUCAAUUCCAACCUCUAAGUCGGGGAAAGGUGACAGGUUUCCUGGUGCUGGUGUGCACAGGGGCAGGCAG; value = 0.474
Oligonucleotide = GCUGGGAUGCGUUUUUCUUGGUGUUGCAUGCUCACAACUCUGCUGACAUUGGGAACUUAUGAGAGAGGAAGACUCGGGAAAGCACAGAUACUGGACAGAUGGAUUCUGGU; value = 15
Oligonucleotide = CCAAUCUGCCAUUCAUGGUGUUAUAAACUCGGAAUUCCAUAUGUAAUAGGAUGCAAGUCUAAGCGUUUCAUGUGGACAUAAAUGUAUCUAAAUAAAACUUCCCCUAGCAC; value = 0.205
Oligonucleotide = CUGAAAAGCAUGGUGCUGGUAACAGUUCAACAAUCCGUGGCUGCUCAUUCUUGCCGACUCCUCCCCCUCUGAAGCAGGUUAGCAUUGAAGGUGGUAUGGAAGCCUGCAUG; value = 2.03
Oligonucleotide = UUUAUAAAACUCUAAAAGUAUUCUGUUUUGAUAUGUCUUUUUGUUUCUAUUCAUUUUCAGUUAUAUGAUUGAUUUACUUAUGCCAAGAUUCUGUCACUGUCAGUUAUUUA; value = 0.732
Oligonucleotide = UUUUUCCUUUGGCUGCCUUUUGUUUGUUUGUUUGUUUGUUGUUCUUGUGGGGAGGGCUCAGGAAUGAUUUAACCCCCCCUAAGAUUAUGGUUGGGUCAGUACAGAUUCCA; value = 52.3
Oligonucleotide = UUGACCCCAAUGCCUCUGUUUACCAGCCCCUGAAGAAAUGAGGCCAGCUGUGUGUUGUGCCCAAAAAUUUGGUUACCGGAAGGCAUUGCAAAGGAGCGUCUCUGGCAGUC; value = 0.447
Oligonucleotide = GUUUACAGGUAGCAAUAGUCAAUUAUUUAACUACUUAGUUGCCACCAGGAGUCACUGAGCCAAUGACUAUCAGCUGCUGACUAAUCUUCACACUGUAGUUAUUGCUUCAU; value = 0.32
Oligonucleotide = GGAAGGAGGCAGACUGAUGGCGAUUCCCUCUCACCCGGGACUCUCCCCCUUUCAAGGAAAGUGAACCUUUAAAGUAAAGGCCUCAUCUCCUUUAUUGCAGUUCAAAUCCU; value = 0.268

Study 4 — target: CCNA1, cyclin fold, Cln2 fusion (human); method: yeast growth competition, sequencing; sample: yeast; notes: weak parent motif; relative to: not given; direction: higher = stronger binding; quantity: normalised enrichment score
Parent: RP1L1 docking peptide (human); TLGLGPLSFTLED; partner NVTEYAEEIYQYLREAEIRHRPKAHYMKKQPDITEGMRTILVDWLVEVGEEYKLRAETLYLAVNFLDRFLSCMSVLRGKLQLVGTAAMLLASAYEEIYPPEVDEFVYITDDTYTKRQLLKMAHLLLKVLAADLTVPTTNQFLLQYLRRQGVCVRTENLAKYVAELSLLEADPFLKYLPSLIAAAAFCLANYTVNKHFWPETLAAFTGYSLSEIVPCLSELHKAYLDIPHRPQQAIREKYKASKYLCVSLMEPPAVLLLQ
Substitution = TLGLAPLSFTLED [G5A]; value = -0.563
Substitution = TLGLGPLSFTLEA [D13A]; value = -0.583
Substitution = TLGLGPLSFALED [T10A]; value = -0.556
Substitution = TLGLGPLAFTLED [S8A]; value = -0.493
Substitution = TAGLGPLSFTLED [L2A]; value = -0.676
Substitution = TLGLGPLSATLED [F9A]; value = -0.0797
Substitution = TLGLGPLSFTLAD [E12A]; value = -0.467

Study 5 — method: DHFR PCA, deep sequencing; sample: yeast; together with: (+)-ABA 0.032 µM; relative to: wild-type fitted maximum; direction: higher = stronger binding; quantity: relative binding score
Target: ABI1, truncated, D143A, DHFR fusion (Arabidopsis thaliana)
Notes: methotrexate growth selection, single substitutions
Parent: PYL1, truncated, DHFR fusion (Arabidopsis thaliana); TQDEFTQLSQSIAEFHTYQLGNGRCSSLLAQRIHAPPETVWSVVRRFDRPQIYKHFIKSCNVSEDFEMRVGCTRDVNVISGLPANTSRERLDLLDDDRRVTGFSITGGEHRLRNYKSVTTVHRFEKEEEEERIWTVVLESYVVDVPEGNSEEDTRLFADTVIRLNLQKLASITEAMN
Substitution = R32D; value = -5.95%
Substitution = T39Y; value = 6.68%
Substitution = S104H; value = -0.905%
Substitution = F47E; value = -7.65%
Substitution = T101W; value = 0.507%
Substitution = P37R; value = -0.846%
Substitution = E64R; value = 22.4%
Substitution = C72K; value = -1.89%
Substitution = L112K; value = 4.71%
Substitution = Q19F; value = 6.58%
Substitution = L169M; value = -3.74%
Substitution = R88D; value = 0.205%
Substitution = S9L; value = 27.1%
Substitution = V142L; value = -6.75%
Substitution = Y53N; value = -0.0153%

Study 6 — target: FOS, bZIP domain (human); method: DHFR protein complementation; sample: yeast; relative to: wild-type JUN-FOS pair; direction: higher = stronger binding; quantity: binding fitness
Notes: single substitutions, most at no-binding floor
Parent: JUN, bZIP domain (human); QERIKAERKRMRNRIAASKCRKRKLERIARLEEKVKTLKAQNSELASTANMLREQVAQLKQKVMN; partner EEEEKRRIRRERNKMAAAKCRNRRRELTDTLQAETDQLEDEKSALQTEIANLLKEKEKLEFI
Substitution = L52Y; value = -0.837 natural log
Substitution = V56T; value = -1.16 natural log
Substitution = L52K; value = -1.04 natural log
Substitution = Q55A; value = -0.00944 natural log
Substitution = A40S; value = -0.0878 natural log
Substitution = A46Q; value = -0.0238 natural log
Substitution = S43V; value = -0.13 natural log
Substitution = E32M; value = -0.0748 natural log
Substitution = L31I; value = -0.458 natural log
Substitution = A29T; value = -0.102 natural log
Substitution = A57E; value = 0.0224 natural log
Substitution = R30C; value = 0.01 natural log
Substitution = T48N; value = -0.352 natural log
Substitution = L31S; value = -0.631 natural log
Substitution = S43G; value = -0.056 natural log
Substitution = T48V; value = -0.0685 natural log
Substitution = N42L; value = -0.1 natural log
Substitution = E32G; value = -0.238 natural log
Substitution = S47A; value = 0.0936 natural log

Mixed results
Substance = PhoQ, residues 284 288 289 292 302 303 NSMLDC; target = PhoP, residues 12 14 15 18 19 NQFFI (Escherichia coli, UniProt P23836); test = Sort-seq, measured: YFP reporter; test system = E. coli; conditions = PhoQ-PhoP variant library, together with: 10 µM Mg2+; how to read = relative to: high Mg2+ state, higher = stronger signaling; quantity = fold induction; value = 11.6

For quick reference, copied from above (study 6):
Substitution = V56T; value = -1.16 natural log
Substitution = R30C; value = 0.01 natural log
Substitution = T48N; value = -0.352 natural log
Substitution = T48V; value = -0.0685 natural log
Substitution = L31S; value = -0.631 natural log
Substitution = L31I; value = -0.458 natural log
Substitution = A46Q; value = -0.0238 natural log
Substitution = Q55A; value = -0.00944 natural log
